# Published values pooled from the literature.
# Numbered parts are unrelated; each lists some results of a single study.

# Series 1 — technique: universal PBM; form: double-stranded DNA, one strand shown; matrix: in vitro; concentration: not given; reading: higher = stronger binding
# Target: Sal-like protein 4, full length isoform B (SALL4, Homo sapiens, UniProt Q9UJQ4-2, residues 1-616)
# Notes: 8-mer, flanks averaged, mean of replicates
Oligonucleotide,E-score
AAGTGTCC,-0.0113
AACACGCA,0.0957
CTTTGCCA,-0.0347
AGACGTGA,0.0635

# Series 2 — technique: protein binding microarray; form: double-stranded DNA, one strand shown; matrix: in vitro; concentration: not given; relative to: not given; reading: higher = stronger binding
# Target: Histone acetyltransferase KAT6A, winged helix 1, GST fusion (KAT6A, Homo sapiens, UniProt Q92794, residues 1-85)
# Notes: 8-mer, flanks averaged, mean of 2 arrays, mostly near background
# Construct (chain): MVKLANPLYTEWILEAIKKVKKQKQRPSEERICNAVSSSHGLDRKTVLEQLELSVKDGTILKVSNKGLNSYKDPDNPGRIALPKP
Oligonucleotide,E-score
CTTGATCC,-0.163
CTTGAAAA,-0.184
GGAGGTGA,-0.0321
AAATTGCG,0.193
ATTATCTA,-0.0868
ACATCAGG,-0.283

# Series 3 — technique: RNA Bind-n-Seq; form: RNA; matrix: in vitro; concentration: 200 nM; notes: whole 134-nt RNA, ends assumed; added: 150 mM LiCl; relative to: input library; reading: higher = stronger binding; all molecules: 7-deaza-guanosine replaces G
# Target: Ras GTPase-activating protein-binding protein 1, full length (G3BP1, Homo sapiens, UniProt Q13283)
# Chain of UniProt Q13283 (whole entry, looked up): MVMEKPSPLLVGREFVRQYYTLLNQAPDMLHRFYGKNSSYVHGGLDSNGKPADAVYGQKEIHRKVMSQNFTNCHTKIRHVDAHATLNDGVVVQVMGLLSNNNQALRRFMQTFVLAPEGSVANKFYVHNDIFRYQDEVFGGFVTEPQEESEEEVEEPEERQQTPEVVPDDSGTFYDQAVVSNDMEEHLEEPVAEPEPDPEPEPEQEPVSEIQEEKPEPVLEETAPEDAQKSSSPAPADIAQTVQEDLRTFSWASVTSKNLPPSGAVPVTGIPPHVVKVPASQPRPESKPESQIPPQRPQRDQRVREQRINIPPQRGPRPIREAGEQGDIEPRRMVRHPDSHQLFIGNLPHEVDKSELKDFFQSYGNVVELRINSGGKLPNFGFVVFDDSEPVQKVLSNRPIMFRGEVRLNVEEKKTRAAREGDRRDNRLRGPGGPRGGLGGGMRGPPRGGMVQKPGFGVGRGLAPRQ
Oligonucleotide,log2 enrichment
GGGAGUUCUACAGUCCGACGAUCGUCCUGUGCUACACAUCGUAUGUACCGAAUCAAAUUUUUAAACCCCCAAACCCCCAAAAAAGUAUUAUGUUACGCCGUUCGGAUCUGCACUGGAAUUCUCGGGUGUCAAGG,0.59
GGGAGUUCUACAGUCCGACGAUCACCAUGCAGGUGGGCAUCGUUGGGAAGUGGGGCAAGGGGGGGAUAGGGAGGGGGGUAACACUUUGGGAACAGGUGGUCCCAGGUCGUUUCUGGAAUUCUCGGGUGUCAAGG,0.862
GGGAGUUCUACAGUCCGACGAUCGCAGGAAGUAAAAACAAAUGGAAAUGCUUCGGAUAGAAACAGGGGUGGGGGUUGCUAAGGAAAGGGUGGGAUGGGAGUGGGUAAAGAGUUUGGAAUUCUCGGGUGUCAAGG,0.438
GGGAGUUCUACAGUCCGACGAUCCCUGUGCUACACAUCGUAUGUACCGAAUCGGGGAAAAAAAGGGGAAAAAAAGGGGUGGGGAAAGUAUUAUGUUACGCCGUUCGGAUCUGCUGGAAUUCUCGGGUGUCAAGG,0.811

# Further values, each from its own experiment
Molecule,target,test,test system,setting,scale,measurement,result
"PhoQ, residues 284 288 289 292 302 303 GTAMQF","PhoP, residues 12 14 15 18 19 NQGLL (Escherichia coli, UniProt P23836)","Sort-seq, measured: YFP reporter",E. coli,"PhoQ-PhoP variant library, added: 10 µM Mg2+","relative to: high Mg2+ state, higher = stronger signaling",fold induction,12.4

# For quick reference, copied from above (series 3):
Oligonucleotide,log2 enrichment
GGGAGUUCUACAGUCCGACGAUCACCAUGCAGGUGGGCAUCGUUGGGAAGUGGGGCAAGGGGGGGAUAGGGAGGGGGGUAACACUUUGGGAACAGGUGGUCCCAGGUCGUUUCUGGAAUUCUCGGGUGUCAAGG,0.862
